{"data": "Results collected from several papers", "cell line": "THP-1", "note": "Compare with care: the assays were run in different laboratories."}
{"SMILES": "O=C1c2ccccc2NC(c2ccc(Cl)c([N+](=O)[O-])c2)N1/N=C/c1ccc(Cl)c([N+](=O)[O-])c1 (stereo not shown)", "test": "cell growth or viability, CCK-8", "conditions": "24 h", "measurement": "IC50", "value": "> 50 µM"}
{"SMILES": "CC(C)C[C@@H]1NC(=O)[C@H](CC(C)C)NC(=O)[C@H](Cc2ccccc2)NC(=O)[C@@H]2CSSC[C@@H](C(=O)O)NC(=O)[C@H](CSSC[C@H](N)C(=O)N3CCC[C@H]3C(=O)N2)NC(=O)CNC1=O", "test": "cell adhesion", "conditions": "added: von Willebrand factor", "measurement": "IC50", "value": "~20 µM"}
{"SMILES": "O=[N+]([O-])c1ccc2c(c1)C=[N+]1N3C(=[O+][Cu-2]1([Cl])[O]2)c1ccccc1NC3c1cc([N+](=O)[O-])ccc1O (stereo not shown)", "test": "cell growth or viability, CCK-8", "measurement": "IC50", "value": "0.3 µM"}
{"SMILES": "COc1cc(O)cc(O)c1C(=O)/C=C/c1ccccc1", "test": "antioxidant effect, OPT fluorometric glutathione, item: redox index GSH/total glutathione", "test system": "cell extract", "measurement": "EC50", "value": "5.39 µM"}
{"SMILES": "CC1CC(=O)NN=C1c1ccc(NC(=O)N2Cc3ccncc3C2)cc1 (stereo not shown)", "test": "cell growth or viability, ATP luminescence", "measurement": "IC50", "value": "0.00047 µM"}
{"SMILES": "CC(C)C[C@H](NC(=O)[C@H](CO)NC(=O)[C@H](CCCNC(=N)N)NC(=O)[C@H](CCCCN)NC(=O)[C@@H](NC(=O)[C@@H](NC(=O)CNC(=O)[C@H](CCCNC(=N)N)NC(=O)[C@H](Cc1c[nH]cn1)NC(=O)[C@H](Cc1c[nH]c2ccccc12)NC(=O)[C@H](Cc1ccccc1)NC(=O)[C@H](Cc1c[nH]cn1)NC(=O)[C@H](Cc1ccc(O)cc1)NC(=O)[C@@H](N)Cc1ccc(O)cc1)C(C)C)[C@@H](C)O)C(=O)N[C@@H](CO)C(=O)N1CCC[C@H]1C(=O)N[C@@H](Cc1c[nH]cn1)C(=O)N[C@@H](CCCNC(=N)N)C(=O)N1CCC[C@H]1C(=O)N[C@@H](CCCNC(=N)N)C(=O)N[C@@H](Cc1c[nH]cn1)C(=O)N[C@@H](CO)C(=O)N[C@@H](CCCNC(=N)N)C(=O)O", "test": "IL-1β secretion, ELISA", "conditions": "30 µM, 4 to 12 h, added: LPS", "measurement": "inhibition", "value": "30%"}
{"SMILES": "C[C@@H]1CC(=O)N(C2CCOCC2)N=C1c1ccc(NC(=O)N2Cc3ccncc3C2)cc1", "test": "cell growth or viability, ATP luminescence", "measurement": "IC50", "value": "0.00034 µM"}
{"SMILES": "CCOC(=O)C1=C(C)NC(=O)N[C@@H]1/C=C/c1ccc(OC)cc1", "test": "cell growth or viability, MTT", "conditions": "24 h", "measurement": "IC50", "value": "13.1 µM"}
{"SMILES": "CC1CC(=O)N(CCCN)N=C1c1ccc(NC(=O)N2Cc3ccncc3C2)cc1 (stereo not shown)", "test": "cell growth or viability, ATP luminescence", "measurement": "IC50", "value": "0.0012 µM"}
{"SMILES": "COc1cc(/C=N/N2C(=O)c3ccccc3NC2c2cc(OC)c(O)c(OC)c2)cc(OC)c1O (stereo not shown)", "test": "cell growth or viability, CCK-8", "conditions": "24 h", "measurement": "IC50", "value": "> 50 µM"}
{"SMILES": "CCNC(=O)Nc1ccc(S(=O)(=O)Oc2ccccc2CC)cc1", "test": "cell growth or viability, MTT", "conditions": "48 h", "measurement": "IC50", "value": "4 µM"}
{"SMILES": "COc1ccc(-c2cc(=O)c3c(O)c(OC)c(O)c(OC)c3o2)cc1O", "test": "antioxidant effect, OPT fluorometric glutathione, item: redox index GSH/total glutathione", "test system": "cell extract", "measurement": "EC50", "value": "4.58 µM"}
{"SMILES": "O=C1c2ccccc2NC(c2ccc(O)c(O)c2)N1/N=C/c1ccc(O)c(O)c1 (stereo not shown)", "test": "cell growth or viability, CCK-8", "conditions": "24 h", "measurement": "IC50", "value": "9.5 µM"}
{"SMILES": "Nc1nc2c(ncn2[C@@H]2O[C@@H]3COP(=O)(O)O[C@H]4[C@@H](F)[C@H](n5cnc6c(=O)[nH]cnc65)O[C@@H]4CSP(=O)(O)O[C@@H]2[C@@H]3O)c(=O)[nH]1", "test": "item: CXCL10", "conditions": "10 µM, 24 h", "how to read": "reference: untreated", "measurement": "mRNA level", "value": "~400 fold"}
{"SMILES": "COc1cccc(C2Nc3ccccc3C3=[O+][Cu-2]4([Cl])[O]c5c(cccc5OC)C=[N+]4N32)c1O (stereo not shown)", "test": "cell growth or viability, CCK-8", "measurement": "IC50", "value": "0.2 µM"}
{"SMILES": "C(=C/c1ccccc1)/c1ccccc1", "test": "apoptosis, Hoechst nuclear staining", "conditions": "24 h, 50% apoptosis induction", "measurement": "EC50", "value": "> 500 µM"}
{"note": "Some of these lines once more:"}
{"SMILES": "O=[N+]([O-])c1ccc2c(c1)C=[N+]1N3C(=[O+][Cu-2]1([Cl])[O]2)c1ccccc1NC3c1cc([N+](=O)[O-])ccc1O (stereo not shown)", "test": "cell growth or viability, CCK-8", "measurement": "IC50", "value": "0.3 µM"}
{"SMILES": "COc1cc(O)cc(O)c1C(=O)/C=C/c1ccccc1", "test": "antioxidant effect, OPT fluorometric glutathione, item: redox index GSH/total glutathione", "test system": "cell extract", "measurement": "EC50", "value": "5.39 µM"}
{"SMILES": "CC1CC(=O)NN=C1c1ccc(NC(=O)N2Cc3ccncc3C2)cc1 (stereo not shown)", "test": "cell growth or viability, ATP luminescence", "measurement": "IC50", "value": "0.00047 µM"}
